Measured values collected from several papers.
± gives the spread as reported.

SMILES | assay | test system | conditions | endpoint | value
C=CC(=O)Nc1cc(Nc2nccc(Nc3cc(Cl)c(F)cc3C(C)(C)O)n2)c(OC)cc1N1CC[C@H](N(C)C)C1 | – | human plasma | – | unbound fraction | 11.1%
Cc1cc(F)ccc1-c1cc(N2C[C@H]3COC(O)CN3C[C@H]2CO)ncc1N(C)C(=O)C(C)(C)c1cc(C(F)(F)F)cc(C(F)(F)F)c1 (stereo partly drawn) | – | pooled human liver microsomes | pH 7.4, substrate depletion | unbound intrinsic clearance | 596 µL/min/mg
COC1C(c2ccc(Cl)c(Cc3ccc(OC4CCOC4)cc3)c2)OC(CO)C(O)C1O (stereo not drawn) | – | dog plasma | 1 µM, 5 h | unbound fraction | 0.042
Cc1[nH]nc2c1N=C(c1ccccc1Cl)c1cnc(N3CCOCC3)cc1N2 | – | mouse plasma | – | unbound fraction | 0.0367
O=C(N[C@@H](Cc1ccc(OCCCCC2CCNCC2)cc1)C(=O)O)c1nc2ccccc2o1.O=C(O)C(F)(F)F | rapid equilibrium dialysis | human platelet-free plasma | 2 µM, 24 h, 37 °C | unbound fraction in plasma | 0.95%
COc1ccc2c(c1)CN(C(=O)CCN1CCC(Cc3ccccc3)CC1)CCS2 | – | paroxysmal atrial fibrillation patients, plasma | oral, 540 mg, 10 min | unbound plasma concentration | 3 ± 2 nM
CCC1(CC)CC(=O)N(C2CCOc3ccc(C(=O)NC4CC(C)(C)Oc5ccccc54)cc32)C(=N)N1 (stereo not drawn) | – | dog plasma | – | unbound fraction | 0.007
CN(C(=O)C(C)(C)c1cc(C(F)(F)F)cc(C(F)(F)F)c1)c1cnc(N2C[C@H]3COCCN3C[C@H]2CO)cc1-c1ccc(F)cc1CO | – | pooled human liver microsomes | pH 7.4, substrate depletion | unbound intrinsic clearance | 2070 µL/min/mg
COc1ccc2c(c1)CN(C(=O)CCN1CCC(Cc3ccccc3)CC1)CC[S@@+]2[O-] | – | healthy male volunteers | intravenous, 0.2 mg/kg | unbound plasma concentration | 150 nM

Some of these lines once more:
SMILES | assay | test system | conditions | endpoint | value
COC1C(c2ccc(Cl)c(Cc3ccc(OC4CCOC4)cc3)c2)OC(CO)C(O)C1O (stereo not drawn) | – | dog plasma | 1 µM, 5 h | unbound fraction | 0.042
